Assay results gathered from unrelated publications.
Lines come from different studies, so protocols differ.
MKNK2: MAP kinase-interacting serine/threonine-protein kinase 2 (MKNK2, Homo sapiens, UniProt Q9HBH9)
UniProt Q9HBH9, sequence (whole entry, looked up): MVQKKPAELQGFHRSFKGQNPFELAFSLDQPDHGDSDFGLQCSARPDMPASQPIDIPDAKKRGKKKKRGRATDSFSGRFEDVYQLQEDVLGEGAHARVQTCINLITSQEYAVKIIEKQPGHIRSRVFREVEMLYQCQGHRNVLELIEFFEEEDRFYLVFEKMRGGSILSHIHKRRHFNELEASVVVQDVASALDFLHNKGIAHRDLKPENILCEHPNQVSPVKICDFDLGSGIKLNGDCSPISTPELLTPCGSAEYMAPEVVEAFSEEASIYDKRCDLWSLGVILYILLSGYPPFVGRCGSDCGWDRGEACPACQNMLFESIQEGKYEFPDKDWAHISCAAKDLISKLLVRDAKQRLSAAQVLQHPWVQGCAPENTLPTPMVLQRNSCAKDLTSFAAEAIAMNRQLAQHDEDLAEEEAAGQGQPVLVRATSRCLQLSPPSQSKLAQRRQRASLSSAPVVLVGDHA
UniProt Q9P0L2, sequence (whole entry, looked up): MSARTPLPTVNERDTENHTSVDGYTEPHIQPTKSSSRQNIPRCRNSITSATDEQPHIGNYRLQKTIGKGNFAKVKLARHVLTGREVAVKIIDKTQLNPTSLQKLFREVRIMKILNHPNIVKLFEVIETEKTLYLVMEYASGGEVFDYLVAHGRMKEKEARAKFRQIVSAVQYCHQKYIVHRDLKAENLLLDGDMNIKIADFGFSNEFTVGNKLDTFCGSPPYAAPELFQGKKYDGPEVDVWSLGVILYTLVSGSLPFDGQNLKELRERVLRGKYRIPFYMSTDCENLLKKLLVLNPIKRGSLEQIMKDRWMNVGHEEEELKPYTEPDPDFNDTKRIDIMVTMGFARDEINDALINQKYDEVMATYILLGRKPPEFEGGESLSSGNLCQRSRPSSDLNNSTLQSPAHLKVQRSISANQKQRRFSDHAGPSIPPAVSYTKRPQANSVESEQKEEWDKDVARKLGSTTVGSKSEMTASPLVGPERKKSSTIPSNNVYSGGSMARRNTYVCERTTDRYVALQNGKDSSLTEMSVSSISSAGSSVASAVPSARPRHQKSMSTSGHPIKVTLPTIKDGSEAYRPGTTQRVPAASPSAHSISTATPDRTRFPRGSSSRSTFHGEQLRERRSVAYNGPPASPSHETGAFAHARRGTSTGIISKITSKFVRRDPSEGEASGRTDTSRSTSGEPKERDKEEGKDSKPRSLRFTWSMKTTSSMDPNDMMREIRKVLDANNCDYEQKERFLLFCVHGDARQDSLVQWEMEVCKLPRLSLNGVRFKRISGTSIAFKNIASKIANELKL
UniProt Q9HAZ1, sequence (whole entry, looked up): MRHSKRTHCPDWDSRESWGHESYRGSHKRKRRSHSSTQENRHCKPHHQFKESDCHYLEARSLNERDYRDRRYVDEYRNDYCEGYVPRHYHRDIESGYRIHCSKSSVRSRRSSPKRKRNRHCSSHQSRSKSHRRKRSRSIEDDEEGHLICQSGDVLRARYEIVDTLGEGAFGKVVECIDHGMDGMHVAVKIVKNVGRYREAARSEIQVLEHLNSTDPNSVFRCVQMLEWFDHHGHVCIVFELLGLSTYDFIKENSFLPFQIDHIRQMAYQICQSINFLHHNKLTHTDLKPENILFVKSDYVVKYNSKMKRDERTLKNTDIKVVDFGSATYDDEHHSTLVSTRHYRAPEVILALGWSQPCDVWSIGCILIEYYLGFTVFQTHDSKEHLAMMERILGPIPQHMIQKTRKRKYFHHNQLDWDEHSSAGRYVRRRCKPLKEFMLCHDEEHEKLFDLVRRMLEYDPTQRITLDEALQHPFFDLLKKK
UniProt P63085, sequence (whole entry, looked up): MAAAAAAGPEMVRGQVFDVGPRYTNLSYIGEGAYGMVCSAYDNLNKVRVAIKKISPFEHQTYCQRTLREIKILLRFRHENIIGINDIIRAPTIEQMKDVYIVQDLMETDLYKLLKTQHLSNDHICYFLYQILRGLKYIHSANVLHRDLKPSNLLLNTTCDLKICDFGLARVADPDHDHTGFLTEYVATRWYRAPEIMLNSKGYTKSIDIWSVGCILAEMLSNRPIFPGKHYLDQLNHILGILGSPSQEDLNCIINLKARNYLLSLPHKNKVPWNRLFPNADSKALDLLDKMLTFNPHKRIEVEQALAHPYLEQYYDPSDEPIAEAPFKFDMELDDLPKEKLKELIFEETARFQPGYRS
UniProt P78362, sequence (whole entry, looked up): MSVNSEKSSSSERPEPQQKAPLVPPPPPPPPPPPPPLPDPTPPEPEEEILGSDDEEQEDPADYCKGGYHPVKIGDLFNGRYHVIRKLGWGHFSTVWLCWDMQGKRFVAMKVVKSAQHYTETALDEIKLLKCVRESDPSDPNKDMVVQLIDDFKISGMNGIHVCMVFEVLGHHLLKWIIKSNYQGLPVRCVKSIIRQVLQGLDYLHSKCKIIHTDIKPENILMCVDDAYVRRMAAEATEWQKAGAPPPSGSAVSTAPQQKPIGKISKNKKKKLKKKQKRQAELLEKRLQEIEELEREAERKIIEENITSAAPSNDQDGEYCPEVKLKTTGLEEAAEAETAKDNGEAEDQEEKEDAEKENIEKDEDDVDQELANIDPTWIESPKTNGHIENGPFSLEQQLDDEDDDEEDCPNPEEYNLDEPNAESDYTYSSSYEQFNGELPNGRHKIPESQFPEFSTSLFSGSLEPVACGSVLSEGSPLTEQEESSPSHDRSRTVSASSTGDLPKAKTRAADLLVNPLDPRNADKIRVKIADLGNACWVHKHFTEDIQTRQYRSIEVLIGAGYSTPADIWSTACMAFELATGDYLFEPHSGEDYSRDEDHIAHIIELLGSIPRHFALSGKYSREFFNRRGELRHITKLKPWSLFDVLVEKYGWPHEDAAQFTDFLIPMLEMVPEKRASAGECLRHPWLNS

O=C(O)c1ccc(Nc2ncc3c(n2)-c2ccc(Cl)cc2C(c2c(F)cccc2F)=NC3)cc1
remaining activity (NEK6(h); kinase activity; 1 µM): 92%

Cc1cc(Nc2cc(N3CCN(C)CC3)nc(Sc3ccc(NC(=O)C4CC4)cc3)n2)[nH]n1
remaining activity (Mapk1 (Mus musculus, UniProt P63085); kinase activity, KinaseProfiler; 0.03 µM, species mouse; relative to: control): 103%

COc1cc(F)ccc1-c1ncnc(Nc2cccc(C[S@](C)(=N)=O)c2)n1
remaining activity (MKNK2; kinase activity; 10 µM, together with: 10 µM ATP): 83%

COc1cc(-c2cncc3c2CN(C)Cc2cc(N4CCNCC4)ccc2-3)cc(OC)c1OC
remaining activity (SRPK2 (Homo sapiens, UniProt P78362); kinase activity; 1 µM, human enzyme, together with: ATP 10 µM; relative to: DMSO control): 110%

COc1cc(Nc2ncc3c(n2)-c2ccc(Cl)cc2C(c2c(F)cccc2OC)=NC3)ccc1C(=O)O
remaining activity (MAP2K6; kinase activity; 1 µM): 109%

CNc1ncc2c(/C=C/C(=O)N3CCC(OC)CC3)nn(Cc3cccc(C(F)(F)F)c3)c2n1
remaining activity (MARK1 (Homo sapiens, UniProt Q9P0L2); kinase activity, inhibitor; 1 µM; relative to: untreated control): 93%

O=C(NC1CCC1)c1ccc2nc(-c3cccc(NS(=O)(=O)NCCN4CCCCC4)c3)cn2c1
remaining activity (CLK4 (Homo sapiens, UniProt Q9HAZ1); enzyme activity; 10 µM): 71%

O=C1NC(=O)/C(=C/c2ccc(-c3ccc(F)cc3O)o2)S1
remaining activity (MKNK2; enzyme activity; 10 µM): 62%

Some of these lines once more:
O=C(NC1CCC1)c1ccc2nc(-c3cccc(NS(=O)(=O)NCCN4CCCCC4)c3)cn2c1
remaining activity (CLK4 (Homo sapiens, UniProt Q9HAZ1); enzyme activity; 10 µM): 71%
